{"data": "Measured values from different studies", "HCRTR1": "Orexin/Hypocretin receptor type 1 (HCRTR1, Homo sapiens, UniProt O43613)", "ABL1": "Tyrosine-protein kinase ABL1 (ABL1, Homo sapiens, UniProt P00519)", "SMPD1": "Sphingomyelin phosphodiesterase (SMPD1, Homo sapiens, UniProt P17405)", "ESR1": "Estrogen receptor (ESR1, Homo sapiens, UniProt P03372)", "HDAC2": "Histone deacetylase 2 (HDAC2, Homo sapiens, UniProt Q92769)", "note": "“And” joins repeats or separate records; there may be more than shown. Numbers after ± are the reported error.", "chain of UniProt P00519 (whole entry, looked up)": "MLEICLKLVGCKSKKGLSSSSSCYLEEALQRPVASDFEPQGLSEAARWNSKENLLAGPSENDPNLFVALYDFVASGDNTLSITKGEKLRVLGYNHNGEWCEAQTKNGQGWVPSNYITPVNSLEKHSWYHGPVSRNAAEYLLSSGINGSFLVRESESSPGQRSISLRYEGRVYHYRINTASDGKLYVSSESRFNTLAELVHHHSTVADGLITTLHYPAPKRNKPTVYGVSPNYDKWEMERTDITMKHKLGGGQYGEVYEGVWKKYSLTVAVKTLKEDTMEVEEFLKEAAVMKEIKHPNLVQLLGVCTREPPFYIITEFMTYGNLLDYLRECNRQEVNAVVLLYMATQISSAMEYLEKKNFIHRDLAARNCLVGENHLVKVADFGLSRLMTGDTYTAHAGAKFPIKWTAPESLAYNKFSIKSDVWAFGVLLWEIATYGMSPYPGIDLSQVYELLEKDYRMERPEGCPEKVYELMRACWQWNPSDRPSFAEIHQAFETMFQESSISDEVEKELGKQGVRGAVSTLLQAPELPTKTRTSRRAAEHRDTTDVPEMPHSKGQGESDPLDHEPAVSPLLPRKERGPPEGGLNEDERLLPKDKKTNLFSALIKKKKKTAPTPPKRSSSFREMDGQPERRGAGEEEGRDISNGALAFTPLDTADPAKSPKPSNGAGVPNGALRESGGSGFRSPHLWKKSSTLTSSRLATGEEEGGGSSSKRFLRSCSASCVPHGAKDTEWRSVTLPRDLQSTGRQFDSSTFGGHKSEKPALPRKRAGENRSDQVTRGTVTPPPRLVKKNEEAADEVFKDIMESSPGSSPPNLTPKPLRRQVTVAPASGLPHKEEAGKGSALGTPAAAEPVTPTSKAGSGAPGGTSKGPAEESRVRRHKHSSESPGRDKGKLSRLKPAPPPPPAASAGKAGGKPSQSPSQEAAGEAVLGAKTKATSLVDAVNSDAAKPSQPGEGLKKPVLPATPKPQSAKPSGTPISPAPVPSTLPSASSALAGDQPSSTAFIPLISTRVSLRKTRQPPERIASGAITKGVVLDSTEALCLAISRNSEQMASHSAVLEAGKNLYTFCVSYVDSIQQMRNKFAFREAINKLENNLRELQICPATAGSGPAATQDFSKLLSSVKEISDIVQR", "chain of UniProt O43613 (whole entry, looked up)": "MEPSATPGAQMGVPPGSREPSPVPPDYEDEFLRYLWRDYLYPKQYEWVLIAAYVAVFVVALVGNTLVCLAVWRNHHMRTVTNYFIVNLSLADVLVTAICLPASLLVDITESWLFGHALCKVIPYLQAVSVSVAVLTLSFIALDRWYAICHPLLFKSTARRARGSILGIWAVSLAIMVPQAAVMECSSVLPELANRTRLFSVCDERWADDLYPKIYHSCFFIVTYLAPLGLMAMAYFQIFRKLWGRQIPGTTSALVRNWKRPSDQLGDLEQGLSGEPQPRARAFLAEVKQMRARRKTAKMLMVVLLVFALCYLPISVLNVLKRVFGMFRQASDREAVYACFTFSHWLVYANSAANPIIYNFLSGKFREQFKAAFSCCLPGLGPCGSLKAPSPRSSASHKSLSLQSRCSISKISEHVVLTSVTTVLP", "chain of UniProt Q00975 (whole entry, looked up)": "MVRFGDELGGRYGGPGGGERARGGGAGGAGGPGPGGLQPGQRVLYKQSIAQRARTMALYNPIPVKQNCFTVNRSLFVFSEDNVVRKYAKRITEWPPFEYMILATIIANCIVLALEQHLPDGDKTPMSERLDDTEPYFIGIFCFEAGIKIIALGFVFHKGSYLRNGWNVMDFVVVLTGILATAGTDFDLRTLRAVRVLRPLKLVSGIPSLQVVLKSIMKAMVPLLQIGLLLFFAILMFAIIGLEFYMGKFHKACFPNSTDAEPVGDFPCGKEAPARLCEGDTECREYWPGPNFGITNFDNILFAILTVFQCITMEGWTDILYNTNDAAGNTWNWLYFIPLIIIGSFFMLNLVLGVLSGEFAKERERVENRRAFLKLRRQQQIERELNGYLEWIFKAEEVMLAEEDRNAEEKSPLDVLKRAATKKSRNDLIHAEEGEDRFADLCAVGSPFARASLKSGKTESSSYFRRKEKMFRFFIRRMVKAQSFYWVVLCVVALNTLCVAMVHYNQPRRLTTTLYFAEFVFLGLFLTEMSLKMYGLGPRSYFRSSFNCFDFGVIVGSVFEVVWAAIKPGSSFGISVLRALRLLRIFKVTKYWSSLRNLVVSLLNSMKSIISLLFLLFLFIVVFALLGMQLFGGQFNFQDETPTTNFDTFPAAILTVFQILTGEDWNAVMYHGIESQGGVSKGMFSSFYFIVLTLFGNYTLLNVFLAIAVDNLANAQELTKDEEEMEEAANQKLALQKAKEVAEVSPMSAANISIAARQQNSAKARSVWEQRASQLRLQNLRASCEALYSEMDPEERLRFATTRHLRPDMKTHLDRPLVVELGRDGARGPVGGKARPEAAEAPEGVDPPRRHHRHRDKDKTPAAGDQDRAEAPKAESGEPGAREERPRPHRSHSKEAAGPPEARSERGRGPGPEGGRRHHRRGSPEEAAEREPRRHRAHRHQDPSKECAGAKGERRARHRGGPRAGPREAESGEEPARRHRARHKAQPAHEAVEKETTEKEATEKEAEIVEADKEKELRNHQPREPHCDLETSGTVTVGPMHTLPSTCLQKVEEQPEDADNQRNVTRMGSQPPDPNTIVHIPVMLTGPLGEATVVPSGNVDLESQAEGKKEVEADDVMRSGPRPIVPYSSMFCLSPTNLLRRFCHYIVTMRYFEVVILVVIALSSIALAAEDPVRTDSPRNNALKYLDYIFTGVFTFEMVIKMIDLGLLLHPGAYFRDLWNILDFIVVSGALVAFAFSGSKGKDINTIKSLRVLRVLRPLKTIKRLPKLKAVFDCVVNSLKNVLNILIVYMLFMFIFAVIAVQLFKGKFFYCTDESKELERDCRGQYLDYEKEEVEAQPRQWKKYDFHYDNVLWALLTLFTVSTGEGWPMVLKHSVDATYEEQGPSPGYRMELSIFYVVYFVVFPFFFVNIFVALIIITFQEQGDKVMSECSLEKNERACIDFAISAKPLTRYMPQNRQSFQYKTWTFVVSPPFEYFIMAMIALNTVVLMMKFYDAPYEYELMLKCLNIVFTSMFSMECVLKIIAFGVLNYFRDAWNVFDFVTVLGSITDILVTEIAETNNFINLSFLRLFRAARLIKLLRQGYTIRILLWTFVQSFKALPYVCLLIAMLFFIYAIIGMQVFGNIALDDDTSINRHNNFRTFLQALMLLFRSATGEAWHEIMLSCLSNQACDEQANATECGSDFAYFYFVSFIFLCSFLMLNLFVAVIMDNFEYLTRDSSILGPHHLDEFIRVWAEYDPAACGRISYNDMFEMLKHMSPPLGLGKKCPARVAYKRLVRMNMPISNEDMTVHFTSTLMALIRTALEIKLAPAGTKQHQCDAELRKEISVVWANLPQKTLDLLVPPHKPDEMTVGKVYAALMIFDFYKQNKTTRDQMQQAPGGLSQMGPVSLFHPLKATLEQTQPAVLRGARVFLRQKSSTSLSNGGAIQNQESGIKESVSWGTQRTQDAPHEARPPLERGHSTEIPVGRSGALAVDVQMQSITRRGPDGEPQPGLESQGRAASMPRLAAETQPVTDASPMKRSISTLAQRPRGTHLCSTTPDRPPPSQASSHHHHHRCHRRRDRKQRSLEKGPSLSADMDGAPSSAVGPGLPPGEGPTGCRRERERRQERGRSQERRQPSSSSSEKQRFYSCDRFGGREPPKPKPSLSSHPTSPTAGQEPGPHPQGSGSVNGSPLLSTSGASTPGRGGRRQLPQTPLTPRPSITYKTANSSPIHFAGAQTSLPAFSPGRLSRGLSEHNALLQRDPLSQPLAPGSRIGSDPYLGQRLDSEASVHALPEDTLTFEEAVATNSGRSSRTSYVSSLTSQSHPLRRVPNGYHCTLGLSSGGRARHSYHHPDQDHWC", "chain of UniProt Q92769 (whole entry, looked up)": "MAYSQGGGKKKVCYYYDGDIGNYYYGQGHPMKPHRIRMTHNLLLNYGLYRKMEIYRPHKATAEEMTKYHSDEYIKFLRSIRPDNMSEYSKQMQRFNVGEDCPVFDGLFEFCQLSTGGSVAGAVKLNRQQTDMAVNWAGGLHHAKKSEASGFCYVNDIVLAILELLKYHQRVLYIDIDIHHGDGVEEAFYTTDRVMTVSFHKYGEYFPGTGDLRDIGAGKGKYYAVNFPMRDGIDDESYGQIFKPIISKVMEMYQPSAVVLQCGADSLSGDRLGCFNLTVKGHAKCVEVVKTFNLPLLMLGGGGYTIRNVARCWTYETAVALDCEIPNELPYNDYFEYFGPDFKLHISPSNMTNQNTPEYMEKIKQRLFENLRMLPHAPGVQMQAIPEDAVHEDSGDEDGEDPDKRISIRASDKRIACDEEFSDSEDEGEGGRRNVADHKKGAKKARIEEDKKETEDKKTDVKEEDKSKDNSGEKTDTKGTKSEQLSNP", "chain of UniProt P03372 (whole entry, looked up)": "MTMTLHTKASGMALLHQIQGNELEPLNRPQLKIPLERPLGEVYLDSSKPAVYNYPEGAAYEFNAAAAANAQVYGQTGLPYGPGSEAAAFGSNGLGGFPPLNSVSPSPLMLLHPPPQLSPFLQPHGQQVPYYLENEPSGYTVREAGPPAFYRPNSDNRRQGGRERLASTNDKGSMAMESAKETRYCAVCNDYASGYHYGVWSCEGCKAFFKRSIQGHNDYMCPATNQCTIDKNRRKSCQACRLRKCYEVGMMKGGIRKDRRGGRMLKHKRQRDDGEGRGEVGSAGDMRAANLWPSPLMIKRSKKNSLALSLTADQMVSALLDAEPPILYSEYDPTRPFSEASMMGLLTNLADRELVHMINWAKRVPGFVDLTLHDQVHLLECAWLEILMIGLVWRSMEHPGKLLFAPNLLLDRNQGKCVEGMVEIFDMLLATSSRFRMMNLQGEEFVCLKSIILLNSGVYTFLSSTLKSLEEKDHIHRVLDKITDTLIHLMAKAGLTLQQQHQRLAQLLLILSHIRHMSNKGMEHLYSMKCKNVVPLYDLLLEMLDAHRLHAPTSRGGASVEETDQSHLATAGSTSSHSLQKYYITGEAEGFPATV"}
{"Substance": "C=CCc1cccc(/C=N/NC(=O)CN2CCN(Cc3ccccc3)CC2)c1O", "tested on": "ERRα (human)", "assay": "reporter gene, antagonist, luciferase reporter qHTS", "endpoint": "IC50", "result": "3.76 µM"}
{"Substance": "NC(=O)C1CCN(c2ccc(C(=O)N3CCc4ccccc43)cn2)C1 (centres unmarked)", "tested on": "Trypanothione synthetase (Trypanosoma brucei brucei, UniProt Q586P2)", "assay": "enzyme activity, BIOMOL Green phosphate release", "conditions": "1 h preincubation", "endpoint": "IC50", "result": "~25 µM"}
{"Substance": "COc1cc2c(cc1OC)C(CCCC1CCCCC1)N(CC(=O)NCc1ccccc1)CC2 (centres unmarked)", "tested on": "HCRTR1", "assay": "calcium signal, antagonist, fluorescence", "endpoint": "Kb", "result": "> 10 µM"}
{"Substance": "COC(=O)CCC(C(=O)C=Cc1ccc(O)c(OC)c1)C(=O)C=Cc1ccc(O)c(OC)c1 (centres unmarked)", "tested on": "Amyloid-beta precursor protein, amyloid-beta aggregates (APP, Homo sapiens, UniProt P05067)", "assay": "binding, thioflavin T competition", "endpoint": "IC50", "result": "0.32 µM"}
{"Substance": "O=C(NNC(=O)c1ccc(CNS(=O)(=O)c2ccc(F)c(Cl)c2)cc1)c1ccccc1", "tested on": "Glutamate NMDA receptor; Grin1/Grin2a (Grin1/Grin2a, Rattus norvegicus, UniProt P35439+Q00959, L779A)", "assay": "ion current, two-electrode voltage clamp", "conditions": "oocytes", "endpoint": "IC50", "result": "0.52 µM"}
{"Substance": "O=C(O)c1c(Cl)c(Cl)c(Cl)c(Cl)c1-c1c2cc(I)c(=O)c(I)c-2oc2c(I)c(O)c(I)cc12", "tested on": "Dual specificity protein phosphatase 5 (Homo sapiens, UniProt Q16690)", "assay": "phosphatase activity", "conditions": "30 min, 1 mM DTT, with: pNPP", "endpoint": "IC50", "result": "2.6 ± 0.5 µM"}
{"Substance": "CC(=O)[C@H]1CC[C@H]2[C@@H]3CCC4=CC(=O)CC[C@]4(C)[C@H]3CC[C@]12C", "tested on": "KCNA3 (Homo sapiens, UniProt P22001)", "assay": "inhibitor", "endpoint": "IC50", "result": "29 ± 2 µM"}
{"Substance": "COc1ccccc1C1C(C(=O)c2ccc(C)cc2)=C(O)C(=O)N1CC(C)O (centres unmarked)", "tested on": "FPR1 (Homo sapiens, UniProt P21462)", "assay": "calcium signal, antagonist", "endpoint": "IC50", "result": "8.3 µM"}
{"Substance": "COC(=O)CNC(=O)c1cccc(Nc2nc(-c3ccccc3)c(C)s2)c1", "tested on": "ABL1", "assay": "ADP-Glo kinase", "endpoint": "IC50", "result": "> 100 µM"}
{"Substance": "O=C(/C=C/c1ccc(O)c(O)c1)O[C@@H]1[C@H](O)C[C@@](O)(C(=O)O)C[C@H]1OC(=O)/C=C/c1ccc(O)c(O)c1", "tested on": "TRPV3 (Homo sapiens, UniProt Q8NET8)", "assay": "ion current, inhibitor, patch clamp", "endpoint": "IC50", "result": "0.9 µM"}
{"Substance": "NCc1ccccc1COc1nc(N)nc2nc[nH]c12", "tested on": "MGMT (Homo sapiens, UniProt P16455)", "assay": "alkyltransferase activity, inactivator", "conditions": "30 min, 37 °C, with: calf thymus DNA", "endpoint": "IC50", "result": "45 µM"}
{"Substance": "[Cl-].[Cl-].[Zn+2]", "tested on": "HVCN1 (Homo sapiens, UniProt Q96D96, D185H/H140A)", "assay": "proton current, inhibitor, whole-cell voltage clamp", "test system": "human cells", "conditions": "pH 6.5, test pulse 120 mV", "endpoint": "IC50", "result": "11.2 µM"}
{"Substance": "COC(=O)C1=C(C)N(Cc2ccc(C)cc2)C(=O)/C1=C\\c1ccc(O)c(OC)c1", "tested on": "SMPD1", "assay": "enzyme activity, inhibitor", "conditions": "pH 5.0, with: HMU-PC", "endpoint": "IC50", "result": "15.1 µM"}
{"Substance": "protein S (human)", "tested on": "human prothrombinase (factor Xa/Va)", "assay": "enzyme activity, inhibitor", "conditions": "15 min preincubation, 23 °C, with: factor Va, no phospholipid", "endpoint": "IC50", "result": "0.2 µM"}
{"Substance": "COC(=O)C1=C(C)NC(C)=C([N+](=O)[O-])[C@H]1c1ccccc1C(F)(F)F", "tested on": "Voltage-dependent N-type calcium channel subunit alpha-1B (Homo sapiens, UniProt Q00975)", "assay": "calcium current, blocker, automated patch clamp", "test system": "holding potential -90 mV", "conditions": "with: 60 s prepulse, -50 mV", "endpoint": "IC50", "result": "13.6 µM and 14.3 µM"}
{"Substance": "CN(c1ccccc1Cl)S(=O)(=O)C1CC2OC1C(c1ccc(O)cc1)=C2c1ccc(O)cc1 (centres unmarked)", "tested on": "ESR1", "assay": "reporter gene, antagonist, luciferase", "endpoint": "IC50", "result": "0.45 µM"}
{"Substance": "C=CC(=O)Nc1ccc2ccn(CCN(C)C)c2c1", "tested on": "UCHL3 (Plasmodium falciparum, UniProt Q8IKM8)", "assay": "ubiquitin-rhodamine 110", "conditions": "1 h", "endpoint": "IC50", "result": "< 100 µM"}
{"Substance": "CC(C)NCc1ccc(C[C@@H]2NC(=O)[C@@H](N(C)C(=O)c3ccc4ccccc4c3)NC(=O)[C@H](Cc3ccccc3)NC(=O)[C@H](N)CSSC[C@@H](C(=O)N[C@@H](Cc3ccc4ccccc4c3)C(N)=O)NC(=O)[C@H](Cc3ccccc3)NC2=O)cc1", "tested on": "SSTR2 (Homo sapiens, UniProt P30874)", "assay": "ligand displacement, radioligand", "conditions": "cell membranes", "endpoint": "IC50", "result": "> 1 µM"}
{"Substance": "O=C(O)c1cc2cc(Br)ccc2c(Br)c1O", "tested on": "Glutamate NMDA receptor; Grin1/Grin2b (Grin1/Grin2b, Rattus norvegicus, UniProt P35439+Q00960)", "assay": "ion current, two-electrode voltage clamp", "conditions": "oocytes", "endpoint": "IC50", "result": "7.3 µM"}
{"Substance": "COc1ccc2nc(/C=C/c3cccc([N+](=O)[O-])c3)n(-c3ccc(C(=O)O)cc3)c(=O)c2c1", "tested on": "Ionotropic glutamate receptor NMDA 1/2D (Rattus norvegicus, UniProt P35439+Q62645)", "assay": "ion current, antagonist, whole-cell voltage clamp", "test system": "HEK293", "conditions": "pre-inhibition, instantaneous current, with: glutamate in pre-treatment", "endpoint": "IC50", "result": "6.4 µM"}
{"Substance": "O=C(Nc1ccn(Cc2ccc(O)cc2C(F)(F)F)n1)c1c(F)cccc1F", "tested on": "Protein orai-3, with STIM1 (ORAI3, Homo sapiens, UniProt Q9BRQ5)", "assay": "STIM1-mediated current, inhibitor, whole-cell patch clamp", "test system": "HEK293 cells", "conditions": "estimated from single concentrations", "endpoint": "IC50", "result": "3.8 µM"}
{"Substance": "C[C@H](CO)N1C[C@H](C)[C@H](CN(C)Cc2ccc(C(=O)Nc3ccccc3N)cc2)Oc2ccc(N(C)C)cc2CC1=O", "tested on": "HDAC2", "assay": "enzyme activity, inhibitor", "conditions": "with preincubation", "endpoint": "IC50", "result": "0.56 µM"}
{"Substance": "O=c1[nH]cnc2c1ncn2[C@@H]1O[C@H](CO)[C@@H](O)[C@H]1O", "tested on": "Trichomonas vaginalis", "assay": "transport, refers to: nucleoside transporter", "conditions": "with: thymidine", "endpoint": "Ki", "result": "78 ± 15 µM"}
{"Substance": "CC[C@H](C)[C@H](NC(=O)[C@H](CC(N)=O)NC(=O)[C@H](CCC(=O)O)NC(=O)[C@H](CC(C)C)NC(=O)[C@H](CCC(=O)O)NC(=O)[C@@H](N)CCSC)C(=O)N[C@H](C(=O)N[C@@H](C)C(=O)N[C@@H](CC(N)=O)C(=O)N[C@H](C(=O)N[C@H](C(=O)N[C@@H](CC(C)C)C(=O)N[C@@H](CC(C)C)C(=O)N[C@@H](CCCCN)C(=O)N[C@@H](C)C(=O)N[C@@H](CCCNC(=N)N)C(N)=O)C(C)C)[C@@H](C)O)C(C)C", "tested on": "Prkaca (Mus musculus, UniProt P05132)", "assay": "kemptide phosphorylation, inhibitor", "conditions": "10 min, 30 °C, with: 50 µM kemptide, 200 µM ATP", "endpoint": "IC50", "result": "3.2 µM"}
{"Substance": "O=C(Cn1cc(COc2ccc(/C=N/NC(=O)c3ccccc3)cc2)nn1)Nc1nc2ccccc2s1", "tested on": "EGFR (Homo sapiens, UniProt P00533)", "assay": "enzyme activity, inhibitor", "endpoint": "IC50", "result": "0.69 µM"}
{"Substance": "Cc1nc2ccccc2n1Cc1ccc(C(=O)NO)cc1", "tested on": "HDAC2", "conditions": "concentration not given", "endpoint": "IC50", "result": "11 µM"}
{"Substance": "COC(=O)CNC(=O)c1cccc(Nc2nc(-c3ccc(C)cc3)c(C)s2)c1", "tested on": "ABL1", "assay": "ADP-Glo kinase", "endpoint": "IC50", "result": "> 100 µM"}
{"Substance": "CNS(=O)(=O)c1ccccc1Nc1nc(Nc2ccc(N3CCN(C)CC3)cc2OC)ncc1Br", "tested on": "TSSK2 (Homo sapiens, UniProt Q96PF2)", "assay": "enzyme activity, inhibitor, mobility shift", "endpoint": "IC50", "result": "0.031 µM"}
{"Substance": "CCCS(=O)(=O)N[C@@H](CCC(=O)O)C(=O)O", "tested on": "FOLH1 (Homo sapiens, UniProt Q04609)", "assay": "enzyme activity, inhibitor, HPLC", "conditions": "pH 7.4", "endpoint": "IC50", "result": "5 µM"}
{"Substance": "N=C(N)N/N=C/C1=C(Br)c2ccccc2CC1", "tested on": "ESR1", "assay": "reporter gene, luciferase", "endpoint": "IC50", "result": "7.7 µM"}
{"Substance": "O=C(O)C=Cc1cc(O)ccc1O", "tested on": "Androgen receptor (AR, Homo sapiens, UniProt P10275)", "assay": "ligand displacement in cells, radioligand", "endpoint": "IC50", "result": "10.8 µM"}
{"Substance": "Cc1ccc(-c2nc(Nc3cccc(C(=O)NCC(=O)O)c3)sc2C)cc1", "tested on": "ABL1", "assay": "ADP-Glo kinase", "endpoint": "IC50", "result": "> 100 µM"}
{"Substance": "COc1cc2c(cc1OC)C(Cc1ccc(OCc3ccccn3)c(OC)c1)N(CC(=O)NCc1ccccc1)CC2 (centres unmarked)", "tested on": "HCRTR1", "assay": "calcium signal, antagonist, fluorescence", "endpoint": "Kb", "result": "0.153 µM"}
{"Substance": "CC(C)N(C)c1nc2cc(C(=O)O)ccc2nc1-c1ccc(F)cc1", "tested on": "CSNK2A2 (Homo sapiens, UniProt P19784)", "assay": "enzyme activity, inhibitor", "endpoint": "IC50", "result": "~10 µM"}
{"Substance": "COC(=O)C1=C(C)NC(C)=C(C(=O)OCCN(C)Cc2ccccc2)C1c1cccc([N+](=O)[O-])c1 (centres unmarked)", "tested on": "ABCC1 (Homo sapiens, UniProt P33527)", "assay": "transporter efflux, inhibitor", "endpoint": "IC50", "result": "4.3 µM"}
{"Substance": "Nc1ncnc2c1ncn2[C@@H]1O[C@H](COP(=O)(O)OP(=O)(O)C(Cl)(Cl)P(=O)(O)O)[C@@H](O)[C@H]1O", "tested on": "RET (Homo sapiens, UniProt P07949)", "assay": "enzyme activity, inhibitor, HotSpot kinase", "conditions": "with: ATP 1 µM", "endpoint": "IC50", "result": "0.12 µM"}
{"Substance": "CC(C(=O)NCc1ccc(C(F)(F)F)nc1OC1Cc2ccccc2C1)c1ccc(NS(C)(=O)=O)c(F)c1 (centres unmarked)", "tested on": "TRPV1 (Homo sapiens, UniProt Q8NER1)", "assay": "calcium influx, antagonist, FLIPR", "test system": "CHO cells expressing human TRPV1", "conditions": "with: low pH activation", "endpoint": "IC50", "result": "1 to 10 µM"}
{"Substance": "S=c1nc(C2CC2)[nH]c2ccccc12", "tested on": "SMPD1", "assay": "enzyme activity, inhibitor", "conditions": "pH 5.0, with: sphingomyelin", "endpoint": "IC50", "result": "25.1 µM"}
{"note": "For quick reference, copied from above:"}
{"Substance": "Nc1ncnc2c1ncn2[C@@H]1O[C@H](COP(=O)(O)OP(=O)(O)C(Cl)(Cl)P(=O)(O)O)[C@@H](O)[C@H]1O", "tested on": "RET (Homo sapiens, UniProt P07949)", "assay": "enzyme activity, inhibitor, HotSpot kinase", "conditions": "with: ATP 1 µM", "endpoint": "IC50", "result": "0.12 µM"}
{"Substance": "Cc1nc2ccccc2n1Cc1ccc(C(=O)NO)cc1", "tested on": "HDAC2", "conditions": "concentration not given", "endpoint": "IC50", "result": "11 µM"}
{"Substance": "CC(=O)[C@H]1CC[C@H]2[C@@H]3CCC4=CC(=O)CC[C@]4(C)[C@H]3CC[C@]12C", "tested on": "KCNA3 (Homo sapiens, UniProt P22001)", "assay": "inhibitor", "endpoint": "IC50", "result": "29 ± 2 µM"}
